Assay results of several laboratories.
Protocols differ between the studies behind these lines. ± marks the error that the study gave.
Organism: Salmonella enterica

SMILES | assay | system | conditions | measurement | result
Cc1c2oc3c(C)ccc(C(=O)N[C@@H]4C(=O)N[C@H](C(C)C)C(=O)N5[C@@H](C)CC[C@H]5C(=O)N(C)CC(=O)N(C)[C@@H](C(C)C)C(=O)O[C@@H]4C)c3nc-2c(C(=O)N[C@@H]2C(=O)N[C@H](C(C)C)C(=O)N3[C@@H](C)CC[C@H]3C(=O)N(C)CC(=O)N(C)[C@@H](C(C)C)C(=O)O[C@@H]2C)c(N)c1=O | broth microdilution | ATCC 10708 | 16 to 48 h | MIC | > 9.36 µg/mL
COc1ccc2c(c1CC=C(C)C)O[C@H]1c3cc4c(cc3OC[C@@]21O)OC(C)(C)C=C4 | microbial growth | TYPHI | – | MIC | 128 µg/mL
Oc1c(Cl)cc(Cl)c2cccnc12 | microbial growth, agar dilution | ATCC10708 CHOLERAESUIS | – | MIC | 1200 µM
Cc1c2oc3c(C)ccc(C(=O)N[C@@H]4C(=O)N[C@H](C(C)C)C(=O)N5[C@H](C(=O)N(C)CC(=O)N(C)[C@@H](C(C)C)C(=O)O[C@@H]4C)[C@@H](O)C[C@@H]5C)c3nc-2c(C(=O)N[C@@H]2C(=O)N[C@H](C(C)C)C(=O)N3CC(=O)C[C@H]3C(=O)N(C)CC(=O)N(C)[C@@H](C)C(=O)O[C@@H]2CO)c(N)c1=O | broth microdilution | ATCC 10708 | 16 to 48 h | MIC | > 9.33 µg/mL
COc1ccc2c(c1CC=C(C)C)O[C@H]1c3cc(CC=C(C)C)c(O)cc3OC[C@@H]21 | microbial growth | TYPHI | – | MIC | 128 µg/mL
Cc1c2oc3c(C)ccc(C(=O)N[C@@H]4C(=O)N[C@H](C(C)C)C(=O)N5[C@H](C(=O)N(C)CC(=O)N(C)[C@@H](C(C)C)C(=O)O[C@@H]4C)[C@@H](O)C[C@@H]5C)c3nc-2c(C(=O)N[C@@H]2C(=O)N[C@H](C(C)C)C(=O)N3CC(=O)C[C@H]3C(=O)N(C)CC(=O)N(C)[C@@H](C)C(=O)O[C@@H]2C)c(N)c1=O | broth microdilution | ATCC 10708 | 16 to 48 h | MIC | > 9.45 µg/mL
N=C(N)NCCC[C@H](NC(=O)[C@H](CS)NC(=O)[C@H](Cc1ccc(O)cc1)NC(=O)[C@H](Cc1c[nH]c2ccccc12)NC(=O)[C@H](CCCNC(=N)N)NC(=O)[C@H](Cc1c[nH]c2ccccc12)NC(=O)CNC(=O)[C@H](Cc1c[nH]cn1)NC(=O)CNC(=O)CN)C(N)=O | – | – | – | MIC | 6 µM
CO[C@H]1O[C@H](COC(c2ccccc2)(c2ccccc2)c2ccccc2)[C@@H](OS(=O)(=O)c2ccccc2)[C@H](OS(=O)(=O)c2ccccc2)[C@H]1OS(=O)(=O)c1ccccc1 | – | serovar Typhi | concentration not given | inhibition zone diameter | 14 ± 0.5 mm
CC(C)=CCc1c(O)ccc2c1O[C@H]1c3cc4c(cc3OC[C@@H]21)OC(C)(C)C=C4 | microbial growth | TYPHI | – | MIC | 128 µg/mL
CC[C@H](C)[C@H](NC(=O)[C@H](CCCCN)NC(=O)[C@H](CCCCN)NC(=O)[C@H](CC(C)C)NC(=O)[C@H](CCCCN)NC(=O)[C@H](CCC(=O)O)NC(=O)[C@H](CCCCN)NC(=O)[C@@H](NC(=O)[C@H](CCCCN)NC(=O)[C@H](CC(N)=O)NC(=O)[C@H](CCCNC(=N)N)NC(=O)[C@H](Cc1ccccc1)NC(=O)[C@H](CCCCN)NC(=O)[C@H](CCCNC(=N)N)NC(=O)[C@H](CC(C)C)NC(=O)[C@H](CCCNC(=N)N)NC(=O)[C@H](CCCCN)NC(=O)[C@H](CCCNC(=N)N)NC(=O)[C@H](CC(C)C)NC(=O)[C@@H](N)CC(C)C)[C@@H](C)CC)C(=O)NCC(=O)N[C@@H](CCC(N)=O)C(=O)N[C@@H](CCCCN)C(=O)N[C@H](C(=O)N[C@@H](CCC(N)=O)C(=O)NCC(=O)N[C@@H](Cc1ccccc1)C(=O)N[C@H](C(=O)N1CCC[C@H]1C(=O)N[C@@H](CCCCN)C(=O)N[C@@H](CC(C)C)C(=O)N[C@H](C(=O)N1CCC[C@H]1C(=O)N[C@@H](CCCNC(=N)N)C(=O)N[C@H](C(=O)N[C@@H](CCC(=O)O)C(=O)N[C@@H](CO)C(=O)O)[C@@H](C)O)C(C)C)C(C)C)[C@@H](C)CC | inhibition zone | ATCC 14028 | LB agar, overnight | lethal concentration | 2.65 µM
CC(C)=CCc1cc2c(cc1O)OC[C@H]1c3ccc(O)c(CC=C(C)C)c3O[C@@H]21 | microbial growth | TYPHI | – | MIC | 128 µg/mL
CC(=O)[O-].O.O.O.O.[Ni+2].[O-]c1ccc(Br)cc1C=NCCN1CCOCC1 | – | serovar Typhi | 20 µL of 100 µM per disc | inhibition zone diameter | 28 mm
CC[C@H](C)[C@H](NC(=O)[C@H](CCCCN)NC(=O)[C@H](CCCCN)NC(=O)[C@H](CC(C)C)NC(=O)[C@H](CCCCN)NC(=O)[C@H](CCC(=O)O)NC(=O)[C@H](CCCCN)NC(=O)[C@@H](NC(=O)[C@H](CCCCN)NC(=O)[C@H](CC(N)=O)NC(=O)[C@H](CCCNC(=N)N)NC(=O)[C@H](Cc1ccccc1)NC(=O)[C@H](CCCCN)NC(=O)[C@H](CCCNC(=N)N)NC(=O)[C@H](CC(C)C)NC(=O)[C@H](CCCNC(=N)N)NC(=O)[C@H](CCCCN)NC(=O)[C@H](CCCNC(=N)N)NC(=O)[C@@H](N)CC(C)C)[C@@H](C)CC)C(=O)NCC(=O)N[C@@H](CCC(N)=O)C(=O)N[C@@H](CCCCN)C(=O)N[C@H](C(=O)N[C@@H](CCC(N)=O)C(=O)NCC(=O)N[C@@H](Cc1ccccc1)C(=O)N[C@H](C(=O)N1CCC[C@H]1C(=O)N[C@@H](CCCCN)C(=O)N[C@@H](CC(C)C)C(=O)O)C(C)C)[C@@H](C)CC | inhibition zone | ATCC 14028 | LB agar, overnight | lethal concentration | 1.47 µM
N=C(N)NCCC[C@H](NC(=O)[C@H](CS)NC(=O)[C@H](Cc1ccc(O)cc1)NC(=O)[C@H](Cc1c[nH]c2ccccc12)NC(=O)[C@H](CCCNC(=N)N)NC(=O)[C@H](Cc1c[nH]c2ccccc12)NC(=O)[C@H](Cc1c[nH]cn1)NC(=O)CNC(=O)CN)C(=O)NCC(=O)NCC(=O)N[C@@H](CCCCN)C(N)=O | – | – | – | MIC | 1 µM
N=C(N)NCCC[C@@H]1NC(=O)[C@H](CCCNC(=N)N)NC(=O)[C@H](CCCNC(=N)N)NC(=O)[C@H](CCCNC(=N)N)NC(=O)[C@H](Cc2c[nH]c3ccccc23)NC(=O)[C@H](CCCNC(=N)N)NC(=O)[C@H](CCCNC(=N)N)NC(=O)[C@@H](N)CCCCn2cc(nn2)C[C@@H](C(N)=O)NC1=O | – | – | 24 h, 37 °C | MIC | 125 µg/mL
